Assay results collected from several papers.
Parts stem from different laboratories: compare values within a part only.

Series 1
Target: Prothrombin, mature alpha-thrombin (F2, Homo sapiens, UniProt P00734)
Method: aptamer microarray, sandwich
Form: DNA with 2'F-ANA
Matrix: in vitro
Tested at: 200 nM
Setting: whole 15-mer aptamer, many near background
With: Cy3 exosite-II aptamer, 400 nM
Reading: higher = stronger binding
Strand: GGTTGGTGTGGTTGG
| Modification | mean fluorescence intensity [a.u.] |
| --- | --- |
| 2'F-ANA at 1 6 7 9 11 | 186 |
| 2'F-ANA at 1 2 3 4 6 7 8 10 14 | 47.5 |
| 2'F-ANA at 1 3 4 6 8 10 11 12 13 | 65.1 |
| 2'F-ANA at 1 2 4 5 12 13 14 | 48.7 |
| 2'F-ANA at 1 4 6 9 11 14 | 48.7 |
| 2'F-ANA at 1 3 4 5 6 10 11 14 | 46.2 |
| 2'F-ANA at 4 5 6 7 8 12 13 15 | 96 |
| 2'F-ANA at 1 4 9 10 13 14 15 | 43.9 |
| 2'F-ANA at 1 3 7 8 9 11 12 14 | 119 |
| 2'F-ANA at 1 2 7 8 9 11 12 | 331 |
| 2'F-ANA at 2 5 6 8 10 12 13 15 | 51.5 |
| 2'F-ANA at 2 4 6 12 14 | 119 |
| 2'F-ANA at 1 5 6 10 11 12 13 14 | 46.3 |

Series 2
Target: Histone acetyltransferase KAT6A, both winged helices, GST fusion (KAT6A, Homo sapiens, UniProt Q92794, residues 1-181)
Method: protein binding microarray
Form: double-stranded DNA, one strand shown
Matrix: in vitro
Tested at: not given
Setting: 8-mer, flanks averaged, mean of 2 arrays, mostly near background
Baseline: not given
Reading: higher = stronger binding
Residues (chain): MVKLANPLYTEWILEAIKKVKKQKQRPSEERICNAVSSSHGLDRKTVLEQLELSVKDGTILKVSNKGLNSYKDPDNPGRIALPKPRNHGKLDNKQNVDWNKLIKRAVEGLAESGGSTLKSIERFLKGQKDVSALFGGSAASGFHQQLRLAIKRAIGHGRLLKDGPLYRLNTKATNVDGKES
| Strand | E-score |
| --- | --- |
| ATTTTAAG | -0.00659 |
| GCAAGTGA | -0.103 |
| AGGGTGCC | -0.0517 |
| CACTCCCA | -0.15 |
| GACGGCTC | 0.218 |
| GCAGTTCC | 0.103 |
| ATATGAGG | -0.212 |
| GAAACACC | -0.00878 |
| ACCCCATG | -0.232 |
| GGTCTCGA | -0.0429 |
| TAAGATCA | -0.0471 |
| CTTGAGTA | -0.16 |
| ACGTGCCC | 0.0458 |
| AGTCGTCG | -0.00053 |
| AACGCTGC | 0.038 |
| GTCGTACA | -0.00844 |
| CTCCCAAG | -0.204 |
| CAATGTGA | -0.0282 |
| ACATTGAG | -0.0227 |
| TCACAAAA | -0.0418 |
| ATGGGCTA | -0.166 |
| CCTCAATA | -0.0195 |
| AAGTTCAT | -0.13 |
| TCTTCACA | -0.174 |

Series 3
Target: Phosphate system positive regulatory protein PHO4, full length, GST-tagged (PHO4, Saccharomyces cerevisiae, UniProt P07270, residues 1-312)
Method: competition protein-binding microarray
Form: double-stranded DNA, one strand shown
Matrix: in vitro
Tested at: 2 µM
Setting: whole 60-bp probe, lowest competitor level
With: Cbf1 competitor, 0.05 µM
Reading: higher = stronger binding
Target sequence (chain): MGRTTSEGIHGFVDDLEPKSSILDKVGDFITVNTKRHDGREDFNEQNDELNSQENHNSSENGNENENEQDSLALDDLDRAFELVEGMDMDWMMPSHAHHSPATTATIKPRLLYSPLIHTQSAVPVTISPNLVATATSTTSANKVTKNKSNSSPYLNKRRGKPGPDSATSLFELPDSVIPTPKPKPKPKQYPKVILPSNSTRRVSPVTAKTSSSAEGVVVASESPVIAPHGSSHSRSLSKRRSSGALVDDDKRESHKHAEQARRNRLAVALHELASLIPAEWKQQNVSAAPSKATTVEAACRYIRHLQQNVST
| Strand | fluorescence intensity |
| --- | --- |
| CGTCCTAGTGATTGTTTCGTGGGTGCCATGAGGAAGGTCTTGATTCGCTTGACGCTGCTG | 8070 a.u. |
| TGCGCAACAACTTGTCACGATACTTTATGTCTAGAAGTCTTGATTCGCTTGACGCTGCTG | 4470 a.u. |
| CGTCCTAGTGATTCCCACGTGTTTTCCATGAGGAAGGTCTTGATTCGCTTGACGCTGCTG | 17800 a.u. |
| GAAAGCGTTCAGTCCCACGTTGAAAAAAATATATAAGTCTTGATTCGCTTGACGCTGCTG | 10800 a.u. |
| AAATTACTAAGTTGGCTTGTGGGTGACGCCGTATGAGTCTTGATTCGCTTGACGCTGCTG | 3910 a.u. |
| CCGACCTTAGAATTTCACGTGTAGGTACACTCAAAAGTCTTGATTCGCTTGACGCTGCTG | 10300 a.u. |
| CGTCCTAGTGATTTTCACGTGCTTTCCATGAGGAAGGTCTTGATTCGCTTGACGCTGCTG | 14200 a.u. |
| CGTCTCGAGCATGAGCGTGTGCAACAGTTGCAACAAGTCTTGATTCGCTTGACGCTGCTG | 7590 a.u. |
| CCGGTTGATAATACGCAGGTGACGTTTGATAATGTGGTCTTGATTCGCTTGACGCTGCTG | 6020 a.u. |
| GGTGTAACATTCAGATGCGTGCGATATTTATTCTCTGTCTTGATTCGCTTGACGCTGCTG | 10200 a.u. |
| TTTAAAAGGAGCCATCACGTTCTGCAGCACTTGAATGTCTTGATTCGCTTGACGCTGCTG | 11300 a.u. |
| AAAGCGGTAATTTGTCGTGTGGGTGCAGATATCTATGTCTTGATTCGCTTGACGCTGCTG | 5080 a.u. |
| GCCCGGTCGTTTGGATGCGTGGGTAGTATAGTTTCTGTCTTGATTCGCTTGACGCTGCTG | 7680 a.u. |
| CATACCCAACCTTGAGGTGTGGGTGAAGATATTTGTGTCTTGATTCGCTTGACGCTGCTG | 6170 a.u. |
| TTGCGAAAGCCGCAGAACGTGATGGATAAACATCAAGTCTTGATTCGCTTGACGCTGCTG | 10700 a.u. |
| GCCATCCAAAACTTGCCCGTGGTGAACTCATTCGGAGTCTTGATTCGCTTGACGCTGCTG | 6540 a.u. |

Series 4
Target: RNA binding protein fox-1 homolog 2, RRM domain, GST-SBP tag (RBFOX2, Homo sapiens, UniProt O43251-10, residues 100-194)
Method: RNA Bind-n-Seq
Form: RNA
Matrix: in vitro
Tested at: 365 nM
Setting: natural RNA segment, single round, ends assumed
Baseline: no-protein control
Reading: higher = stronger binding
Residues (chain): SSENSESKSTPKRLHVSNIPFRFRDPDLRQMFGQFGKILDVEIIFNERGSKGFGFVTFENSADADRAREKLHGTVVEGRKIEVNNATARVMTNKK
| Strand | RBNS enrichment (R) |
| --- | --- |
| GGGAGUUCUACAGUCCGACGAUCGGUGUAUUUGAAUGACUAUUUUAUUCGUAUUUAAAAUAAUACUAUUAAGUAAGCAUUUUGCACAUGGGCACCCCAGUGUCCCGCUGGCCCAGCAGGAGUCACUGUUGGCCUGGAAUUCUCGGGUGCCAA | 0.678 |
| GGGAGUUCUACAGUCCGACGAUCUCCCAUGCAAGUUCUUUUGGGAACACCCAGAAAACUUCUCUGAGAAGAAAAAUGGAAGGUAAGUUGAGUUGCUCCUUUCCCAGUUCCUAGGAAUAGGCAAGAAGCCAGUCUGGAAUUCUCGGGUGCCAA | 1.04 |
| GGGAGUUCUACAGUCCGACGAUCUUUCCAGUUAACUUUGCAUCUUCAUACUCCUCAAGCAGACAUCACUCUUCCGUUUCUUCUAACCUGCUGUUUCUGUUCUGACAGCGGCUCCUUUGUAAGCUUCAGGCCACUGGAAUUCUCGGGUGCCAA | 4.51 |
| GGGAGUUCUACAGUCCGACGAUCGGGCGCUGCCACCACAAGGCCAGCCACUGAGCAGGCAGCUCCCUUCGUCGUCCUCCUGCCCACCCGCUGACAUUAUUUUUAUAUAGCUAAAGAGGUCAACAGCACGGGCAUGGAAUUCUCGGGUGCCAA | 0.339 |
| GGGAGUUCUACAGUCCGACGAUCUUUAGAGAUGGGAAACAAGCAAGAGCUUGACUUGCCUCCCAUCCCUCAGCCUGUCUGUGGCAGAGCCUGCACCAAAACCCAGAGCUUCUUCCCUCCGUGAGGGCCACGCUUGGAAUUCUCGGGUGCCAA | 0.298 |
| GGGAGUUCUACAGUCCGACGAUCACAAGGACUAAUCCUGGGUGUCUCUGAGACCCAUCUCCUGCCUAGACAUCCACCUCCAGAGCAACACUGGCCCCACAGUAAAAGAGGAAGUCUUGUACCUCAGGCAGGCCUGGAAUUCUCGGGUGCCAA | 0.55 |
| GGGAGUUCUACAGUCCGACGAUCAAAUAGAAAGCUAUUUUGAUCUUUAGUGCAAACUAGGGACGUAGCCUCCAUCACCACAACCACACCGCUUCGCUCUGCCAUCCACCCACCGCAGCAGCAUCUUCAAGAAUUGGAAUUCUCGGGUGCCAA | 0.755 |
| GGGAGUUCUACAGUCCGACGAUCGAGGUCAGGAUGGAACUACCUCAUUCGGCAAAUUAGCCCCAAAUUGAGCGCUGAAUCGUGUCCCAUGAGAUCAGGCGCCAUCUGUAAAGUCUCCUCUGGAAAUGCCAAUCUGGAAUUCUCGGGUGCCAA | 0.514 |
| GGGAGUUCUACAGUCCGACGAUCGUGGCCUUCCAAAAUAGGUAGUGUUUGCCUAUGUGGAAACAACAGCAAACUAACACCAAGUGCCAGAGUCCUGGAUGUGCAAUUGGUUUAAGUGUUCAUGUUCUAGUGAAUGGAAUUCUCGGGUGCCAA | 0.314 |
| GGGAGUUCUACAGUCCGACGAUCUCAGAGACCACAGACCACAGUGAUUUUUCUUUUCCCUUGUUUAAUUAGGCAAUACCCUUGUUAAUUGCCCUUUGGCAACUAACUUAACCAUGUGCUUCCCACACAGUACAUGGAAUUCUCGGGUGCCAA | 0.544 |
| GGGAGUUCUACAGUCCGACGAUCUGGAUUGCUGCUAGGAGAGUGACCCUUUAGUGGCAUAGUGACCUCAGACAAGAACUCCCUGGUUGAAAGAAGCCACCUCGAUGCAAAGGCUCAAGGUCCAGGGAGAGACAUGGAAUUCUCGGGUGCCAA | 0.602 |
| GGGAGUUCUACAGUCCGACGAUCCGGCUUUGGUACUCUCUACCUCUUACCGAGCACCGCCCUUUUGACCUUGUAUAGCCAGUUUGACCAUCUGCCUUAUAGACAAACAUUGCUGUUCUUCUAUGUCGUCCUCUUGGAAUUCUCGGGUGCCAA | 0.503 |

Series 5
Target: UBE2G1 UBC core domain (UniProt P62253)
Method: yeast two-hybrid
Matrix: yeast
Setting: mostly zero background
Baseline: not given
Reading: higher = stronger interaction
B1: TRIM35 RING domain (UniProt Q9UPQ4); chain PSRSFKEELLCAVCYDPFRDAVTLRCGHNFCRGCVSRCWEVQVSPTCPVCKDRASPADLRT
B2: RNF112 RING domain (UniProt Q9ULX5); chain QPMAPRELPTCSICLERLRDPISLDCGHDFCIRCFSTHRLPGCEPPCCPECRKICKQKRGLR
B3: PEX2 RING domain (UniProt P28328); chain DNTLATSGKECALCGEWPTMPHTIGCEHIFCYFCAKSSFLFDVYFTCPKCGTEVHSLQPLK
B4: NSMCE1 RING domain (UniProt Q8WV22); chain RETYPDAVKICNICHSLLIQGQSCETCGIRMHLPCVAKYFQSNAEPRCPHCNDYWPHEIPKV
B5: PHF7 RING domain (UniProt Q9BWX1); chain IQHGHVGEESCILCCEDLSQQSVENIQSPCCSQAIYHRKCIQKYAHTSAKHFFKCPQCNNRKEFPQEML
B6: RNF149 RING domain (UniProt Q8NC42); chain EKGIDVDAENCAVCIENFKVKDIIRILPCKHIFHRICIDPWLLDHRTCPMCKLDVIKALGYW
B7: TRIM10 RING domain (UniProt Q9UDY6); chain SVTSLADEVNCPICQGTLREPVTIDCGHNFCRACLTRYCEIPGPDLEESPTCPLCKEPFRPGSFRP
Construct (chain): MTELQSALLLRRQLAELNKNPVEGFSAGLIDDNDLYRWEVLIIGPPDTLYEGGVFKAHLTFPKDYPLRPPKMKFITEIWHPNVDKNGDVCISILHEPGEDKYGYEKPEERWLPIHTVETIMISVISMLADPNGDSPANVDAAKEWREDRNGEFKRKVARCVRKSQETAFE
| Sequence | lacZ reporter activity |
| --- | --- |
| KRQCSDVDDICSICQAEFQKPILLICQHIFCEECMTLWFNREKTCPLCRTVISDHINKW (RNFT1 RING domain (UniProt Q5M7Z0)) | 0 |
| B1 (TRIM35 RING domain) | 0 |
| B2 (RNF112 RING domain) | 0 |
| B3 (PEX2 RING domain) | 0 |
| B4 (NSMCE1 RING domain) | 0 |
| ISNDSETLEECMVCSDMKRDTLFGPCGHIATCSLCSPRVKKCLICKEQVQSRTKIE (MIB1 RING domain (UniProt Q86YT6)) | 0 |
| B5 (PHF7 RING domain) | 0 |
| B6 (RNF149 RING domain) | 0 |
| B7 (TRIM10 RING domain) | 0 |

Excerpt of the above (series 2):
| Strand | E-score |
| --- | --- |
| GGTCTCGA | -0.0429 |
| TAAGATCA | -0.0471 |
| CTTGAGTA | -0.16 |
| ACGTGCCC | 0.0458 |
| AGTCGTCG | -0.00053 |
| AACGCTGC | 0.038 |
| GTCGTACA | -0.00844 |
| CTCCCAAG | -0.204 |
| CAATGTGA | -0.0282 |
| ACATTGAG | -0.0227 |
| TCACAAAA | -0.0418 |
| ATGGGCTA | -0.166 |
